Measurements pooled from the literature.
Parts stem from different laboratories: compare values within a part only.
Sequence of UniProt P49759 (whole entry, looked up): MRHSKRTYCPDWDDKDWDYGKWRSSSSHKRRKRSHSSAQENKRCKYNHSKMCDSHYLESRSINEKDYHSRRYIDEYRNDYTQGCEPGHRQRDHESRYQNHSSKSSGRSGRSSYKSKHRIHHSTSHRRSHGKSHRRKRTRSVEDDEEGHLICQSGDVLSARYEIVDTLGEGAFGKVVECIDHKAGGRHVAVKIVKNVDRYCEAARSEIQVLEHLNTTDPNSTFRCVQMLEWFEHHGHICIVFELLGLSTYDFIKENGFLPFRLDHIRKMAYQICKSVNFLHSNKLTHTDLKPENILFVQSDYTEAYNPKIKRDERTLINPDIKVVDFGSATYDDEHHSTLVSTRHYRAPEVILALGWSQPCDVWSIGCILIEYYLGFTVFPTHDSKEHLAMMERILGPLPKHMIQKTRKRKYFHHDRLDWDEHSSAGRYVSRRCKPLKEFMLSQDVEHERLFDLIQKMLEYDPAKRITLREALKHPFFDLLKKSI
Sequence of UniProt Q9H0K1 (whole entry, looked up): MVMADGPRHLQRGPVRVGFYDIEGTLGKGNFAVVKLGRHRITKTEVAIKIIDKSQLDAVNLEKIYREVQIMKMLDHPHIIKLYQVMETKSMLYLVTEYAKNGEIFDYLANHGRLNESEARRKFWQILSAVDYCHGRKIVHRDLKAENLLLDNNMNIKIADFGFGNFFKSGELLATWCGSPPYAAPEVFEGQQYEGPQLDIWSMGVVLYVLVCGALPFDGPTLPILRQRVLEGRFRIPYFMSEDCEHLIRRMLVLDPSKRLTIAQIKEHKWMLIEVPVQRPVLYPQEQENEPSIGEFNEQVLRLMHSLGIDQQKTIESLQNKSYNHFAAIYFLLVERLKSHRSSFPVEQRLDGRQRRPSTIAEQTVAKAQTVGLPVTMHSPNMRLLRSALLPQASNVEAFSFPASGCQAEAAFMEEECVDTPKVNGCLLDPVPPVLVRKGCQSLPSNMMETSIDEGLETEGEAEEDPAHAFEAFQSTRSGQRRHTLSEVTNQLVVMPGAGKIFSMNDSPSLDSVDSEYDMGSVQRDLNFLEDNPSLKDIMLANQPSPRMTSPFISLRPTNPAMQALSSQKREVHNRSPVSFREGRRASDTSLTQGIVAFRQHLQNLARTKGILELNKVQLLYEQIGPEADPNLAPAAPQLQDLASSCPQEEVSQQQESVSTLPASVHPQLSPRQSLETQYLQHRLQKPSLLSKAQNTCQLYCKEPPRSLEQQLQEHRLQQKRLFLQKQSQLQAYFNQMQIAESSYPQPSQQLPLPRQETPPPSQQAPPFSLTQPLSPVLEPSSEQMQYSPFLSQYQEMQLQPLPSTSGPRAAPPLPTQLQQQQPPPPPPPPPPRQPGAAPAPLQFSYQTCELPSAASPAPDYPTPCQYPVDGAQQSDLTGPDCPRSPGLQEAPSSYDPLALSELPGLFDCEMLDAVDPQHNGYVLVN
Sequence of UniProt Q14012 (whole entry, looked up): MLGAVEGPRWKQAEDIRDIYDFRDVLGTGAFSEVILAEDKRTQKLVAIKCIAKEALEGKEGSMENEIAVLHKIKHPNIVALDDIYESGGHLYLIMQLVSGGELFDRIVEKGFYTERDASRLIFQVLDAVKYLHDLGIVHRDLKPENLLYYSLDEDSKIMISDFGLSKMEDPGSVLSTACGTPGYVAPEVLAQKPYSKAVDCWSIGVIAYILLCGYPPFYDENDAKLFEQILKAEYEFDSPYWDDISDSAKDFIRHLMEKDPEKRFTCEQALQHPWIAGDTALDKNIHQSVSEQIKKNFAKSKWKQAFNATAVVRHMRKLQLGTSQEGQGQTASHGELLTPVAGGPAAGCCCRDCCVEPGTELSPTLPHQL
Sequence of UniProt Q9UBS0 (whole entry, looked up): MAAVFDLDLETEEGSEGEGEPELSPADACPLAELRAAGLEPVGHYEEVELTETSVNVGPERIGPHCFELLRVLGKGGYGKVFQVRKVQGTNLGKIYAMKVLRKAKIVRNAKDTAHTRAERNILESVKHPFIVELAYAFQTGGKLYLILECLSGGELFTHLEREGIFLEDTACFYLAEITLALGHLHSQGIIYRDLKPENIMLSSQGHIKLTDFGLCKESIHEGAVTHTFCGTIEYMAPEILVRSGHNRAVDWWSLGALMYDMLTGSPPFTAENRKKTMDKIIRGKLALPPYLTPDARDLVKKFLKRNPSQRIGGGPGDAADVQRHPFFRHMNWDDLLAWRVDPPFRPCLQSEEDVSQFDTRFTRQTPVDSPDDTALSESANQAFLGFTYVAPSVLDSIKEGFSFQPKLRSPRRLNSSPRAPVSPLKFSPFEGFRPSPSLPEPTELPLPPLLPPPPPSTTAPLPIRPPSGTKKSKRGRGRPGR
Sequence of UniProt O14965 (whole entry, looked up): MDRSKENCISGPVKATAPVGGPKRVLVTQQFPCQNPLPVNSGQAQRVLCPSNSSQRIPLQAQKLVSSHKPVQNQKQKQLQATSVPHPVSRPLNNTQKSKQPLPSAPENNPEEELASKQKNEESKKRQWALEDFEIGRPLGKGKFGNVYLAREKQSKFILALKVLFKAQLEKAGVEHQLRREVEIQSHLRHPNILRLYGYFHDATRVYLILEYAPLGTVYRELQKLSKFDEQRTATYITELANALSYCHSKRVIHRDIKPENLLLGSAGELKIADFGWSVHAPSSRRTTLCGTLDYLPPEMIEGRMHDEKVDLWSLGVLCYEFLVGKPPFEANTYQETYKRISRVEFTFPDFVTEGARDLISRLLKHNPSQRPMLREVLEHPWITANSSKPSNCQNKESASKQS
Sequence of UniProt P42680 (whole entry, looked up): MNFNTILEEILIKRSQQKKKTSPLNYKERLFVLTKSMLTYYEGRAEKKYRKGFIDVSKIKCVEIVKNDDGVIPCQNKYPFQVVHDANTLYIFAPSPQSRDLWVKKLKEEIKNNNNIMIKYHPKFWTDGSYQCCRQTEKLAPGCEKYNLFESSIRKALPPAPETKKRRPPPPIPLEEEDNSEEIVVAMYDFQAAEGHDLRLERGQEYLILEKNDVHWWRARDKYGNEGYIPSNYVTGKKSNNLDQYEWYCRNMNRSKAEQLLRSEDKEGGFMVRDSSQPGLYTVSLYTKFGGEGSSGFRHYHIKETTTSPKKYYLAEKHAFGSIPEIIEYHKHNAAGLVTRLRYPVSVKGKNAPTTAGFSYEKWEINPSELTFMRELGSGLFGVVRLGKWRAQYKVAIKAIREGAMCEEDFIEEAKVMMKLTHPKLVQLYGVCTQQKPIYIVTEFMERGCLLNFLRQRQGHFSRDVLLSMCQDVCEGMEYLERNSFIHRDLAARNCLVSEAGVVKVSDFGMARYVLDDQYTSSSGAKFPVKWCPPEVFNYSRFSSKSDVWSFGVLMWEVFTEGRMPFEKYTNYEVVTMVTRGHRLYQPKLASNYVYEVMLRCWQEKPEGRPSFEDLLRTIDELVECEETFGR
Sequence of UniProt Q8TDC3 (whole entry, looked up): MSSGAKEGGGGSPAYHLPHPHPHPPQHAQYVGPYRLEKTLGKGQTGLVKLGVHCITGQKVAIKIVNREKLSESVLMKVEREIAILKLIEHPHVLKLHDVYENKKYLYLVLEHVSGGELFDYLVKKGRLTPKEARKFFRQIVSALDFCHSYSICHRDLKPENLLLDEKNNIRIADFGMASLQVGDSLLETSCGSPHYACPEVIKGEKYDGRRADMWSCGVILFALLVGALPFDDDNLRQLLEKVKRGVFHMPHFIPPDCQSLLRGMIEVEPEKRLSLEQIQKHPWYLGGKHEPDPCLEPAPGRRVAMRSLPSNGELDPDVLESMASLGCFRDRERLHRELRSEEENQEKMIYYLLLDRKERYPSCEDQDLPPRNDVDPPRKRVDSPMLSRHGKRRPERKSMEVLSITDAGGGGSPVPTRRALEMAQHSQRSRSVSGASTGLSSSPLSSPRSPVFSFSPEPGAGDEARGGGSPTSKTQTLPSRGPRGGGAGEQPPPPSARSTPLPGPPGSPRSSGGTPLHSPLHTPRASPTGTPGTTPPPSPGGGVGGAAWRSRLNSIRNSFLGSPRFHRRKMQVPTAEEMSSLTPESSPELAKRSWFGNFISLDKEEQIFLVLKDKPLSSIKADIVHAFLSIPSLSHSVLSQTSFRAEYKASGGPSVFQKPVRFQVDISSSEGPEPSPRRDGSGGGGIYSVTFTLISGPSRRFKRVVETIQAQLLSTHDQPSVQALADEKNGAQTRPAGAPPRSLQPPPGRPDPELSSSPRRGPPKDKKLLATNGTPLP
Sequence of UniProt Q13153 (whole entry, looked up): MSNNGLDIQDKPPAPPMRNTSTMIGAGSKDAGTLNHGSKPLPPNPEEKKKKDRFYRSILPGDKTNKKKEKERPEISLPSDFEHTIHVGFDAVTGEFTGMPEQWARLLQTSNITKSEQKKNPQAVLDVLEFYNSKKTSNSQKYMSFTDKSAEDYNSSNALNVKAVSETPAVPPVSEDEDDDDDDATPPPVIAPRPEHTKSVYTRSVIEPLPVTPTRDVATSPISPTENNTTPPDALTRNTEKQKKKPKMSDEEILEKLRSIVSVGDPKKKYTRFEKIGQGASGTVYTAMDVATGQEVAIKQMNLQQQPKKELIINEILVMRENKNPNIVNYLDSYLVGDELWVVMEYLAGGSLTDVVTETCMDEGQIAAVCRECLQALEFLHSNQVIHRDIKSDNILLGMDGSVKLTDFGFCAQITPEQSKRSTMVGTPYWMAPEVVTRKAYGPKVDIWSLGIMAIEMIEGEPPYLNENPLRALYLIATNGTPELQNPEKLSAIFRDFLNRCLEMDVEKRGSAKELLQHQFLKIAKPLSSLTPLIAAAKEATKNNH
Sequence of UniProt Q9HBY8 (whole entry, looked up): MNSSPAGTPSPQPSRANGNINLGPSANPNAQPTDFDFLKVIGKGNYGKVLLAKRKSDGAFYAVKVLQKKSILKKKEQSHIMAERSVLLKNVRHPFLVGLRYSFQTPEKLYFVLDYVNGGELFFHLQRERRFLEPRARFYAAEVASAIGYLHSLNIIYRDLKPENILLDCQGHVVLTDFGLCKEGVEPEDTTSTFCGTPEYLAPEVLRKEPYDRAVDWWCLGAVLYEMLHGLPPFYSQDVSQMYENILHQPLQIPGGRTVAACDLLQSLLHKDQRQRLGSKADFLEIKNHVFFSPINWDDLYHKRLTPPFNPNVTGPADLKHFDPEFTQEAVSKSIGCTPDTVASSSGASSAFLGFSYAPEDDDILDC

Series 1 — mode: inhibitor; concentration: 10 µM; reference: control
Target: Diamine acetyltransferase 1 (Homo sapiens, UniProt P21673)
Target sequence (P21673 1-171): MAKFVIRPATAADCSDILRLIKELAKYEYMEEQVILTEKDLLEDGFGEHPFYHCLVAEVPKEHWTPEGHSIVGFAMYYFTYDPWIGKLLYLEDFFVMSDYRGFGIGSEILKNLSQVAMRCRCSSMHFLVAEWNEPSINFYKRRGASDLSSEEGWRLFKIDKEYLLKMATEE
`COc1ccc(-c2oc3cc(OC)c(OC)c(O)c3c(=O)c2OC)cc1OC` has a remaining activity of 96%.
`OCCCO` has a remaining activity of 102%.
`COc1ccc2ccc(=O)oc2c1` has a remaining activity of 94.4%.
The remaining activity of `CCCCCCCCCCCCCCCCCCCO` is reported as 104%.

Series 2 — matrix: hydrocarbon/water
For `CC[C@@H]1NC(=O)[C@@H](CC)NC(=O)[C@H](CC(C)C)NC(=O)[C@H](Cc2ccccc2)NC(=O)[C@H]2CCCN2C(=O)[C@H](CC(C)C)NC1=O`, the logD was -0.443.
For `CCOC(=O)[C@@H]1CSCC(=O)N[C@H](CC)C(=O)N(C)[C@@H](C)C(=O)N[C@@H](CC(C)C)C(=O)N2CCC[C@@H]2C(=O)N(CC(C)C)CC(=O)N[C@@H](CC(C)C)C(=O)N(C)[C@@H](C)C(=O)N[C@@H](CC(C)C)C(=O)N1C`, the logD was 1.8.
With `CCOC(=O)[C@@H]1CSCC(=O)N[C@@H](CC)C(=O)N(CC(C)C)CC(=O)N[C@@H](CC(C)C)C(=O)N(C)[C@H](C)C(=O)N(C)[C@@H](C)C(=O)N[C@H](CC(C)C)C(=O)N(C)[C@H](C)C(=O)N[C@@H](CC(C)C)C(=O)N1C` the logD was 0.905.
`CCCN1CC(=O)N[C@@H](CC(C)C)C(=O)N2CCC[C@@H]2C(=O)N(C)[C@@H](C)C(=O)N[C@@H](CC2CCCCC2)C(=O)N(C)[C@@H](C)C(=O)N[C@@H](CC(C)C)C(=O)N(C)Cc2cn(nn2)CC(=O)N[C@@H](CC(C)C)C1=O` has a logD of 1.01.
For `CC[C@@H]1NC(=O)[C@@H](CC(C)C)NC(=O)[C@H](CC(C)C)NC(=O)[C@H](Cc2ccccc2)NC(=O)[C@H]2CCCN2C(=O)[C@H](CC(C)C)NC1=O`, the logD was 0.642.
`CCN1CC(=O)NC(CC(C)C)C(=O)N(C)C(C)C(=O)NC(CC(C)C)C(=O)N2CCCC2C(=O)N(CC2CCCCC2)CC(=O)NC(CC(C)C)C(=O)N(C)C(C)C(=O)NC(C)C(=O)N2CCCC2C1=O` (centres unmarked) has a logD of 2.44.
With `CC(C)C[C@@H]1NC(=O)[C@H](C)N(C)C(=O)[C@H]2CCCN2C(=O)[C@H](CC(C)C)NC(=O)[C@H](C)N(C)C(=O)[C@@H](C)N(C)C1=O` the logD was -0.893.

Series 3 — effect on: enzyme activity; mode: inhibitor; concentration: 0.5 µM; reference: control
SMILES: CN(C)CCCn1cc(C2=C(c3c[nH]c4ccccc34)C(=O)NC2=O)c2ccccc21
The remaining activity was 116% (Tyrosine-protein kinase Tec (TEC, Homo sapiens, UniProt P42680)).
For SRSF protein kinase 1 (SRPK1, Homo sapiens, UniProt Q96SB4): remaining activity read 87%.
It gave 59% for remaining activity (Ribosomal protein S6 kinase beta-2 (RPS6KB2, Homo sapiens, UniProt Q9UBS0)).
Insulin-like growth factor 1 receptor (IGF1R, Homo sapiens, UniProt P08069) — remaining activity: 91.7%.
Dual specificity tyrosine-phosphorylation-regulated kinase 1A (DYRK1A, Homo sapiens, UniProt Q13627) — remaining activity: 54.7%.
For Mitogen-activated protein kinase kinase kinase 20 (MAP3K20, Homo sapiens, UniProt Q9NYL2): remaining activity read 93.1%.
Activin receptor type-1-like (ACVRL1, Homo sapiens, UniProt P37023) — remaining activity: 107%.
For Dual specificity protein kinase CLK1 (CLK1, Homo sapiens, UniProt P49759): remaining activity read 60.3%.
For Calcium/calmodulin-dependent protein kinase type 1 (CAMK1, Homo sapiens, UniProt Q14012): remaining activity read 82.7%.
Serine/threonine-protein kinase Sgk2 (SGK2, Homo sapiens, UniProt Q9HBY8) — remaining activity: 74.4%.
It gave 90.8% for remaining activity (Calcium/calmodulin-dependent protein kinase kinase 1 (CAMKK1, Homo sapiens, UniProt Q8N5S9)).
The remaining activity was 94.7% (Serine/threonine-protein kinase SIK2 (SIK2, Homo sapiens, UniProt Q9H0K1)).
The remaining activity was 88.7% (Tyrosine-protein kinase JAK1 (JAK1, Homo sapiens, UniProt P23458)).
The remaining activity was 100% (Serine/threonine-protein kinase PAK 6 (PAK6, Homo sapiens, UniProt Q9NQU5)).
The remaining activity was 84.2% (Serine/threonine-protein kinase PAK 1 (PAK1, Homo sapiens, UniProt Q13153)).
It gave 96.5% for remaining activity (Receptor tyrosine-protein kinase erbB-2 (ERBB2, Homo sapiens, UniProt P04626)).
Casein kinase I isoform epsilon (CSNK1E, Homo sapiens, UniProt P49674) — remaining activity: 96.3%.
Casein kinase I isoform delta (CSNK1D, Homo sapiens, UniProt P48730) — remaining activity: 97.6%.
It gave 84.6% for remaining activity (Tyrosine-protein kinase Yes (YES1, Homo sapiens, UniProt P07947)).

Series 4 — effect on: cell-free assay; technique: competition with immobilised ligand; concentration: 1 µM
Structure (SMILES): CCC(=O)N[C@@H]1CC[C@H](C(=O)N(C)c2ccc(-c3nc4ccccc4o3)cc2)C1
The remaining binding was 97% (Ribosomal protein S6 kinase alpha-5, C-terminal kinase domain (RPS6KA5, Homo sapiens, UniProt O75582)).
Mitogen-activated protein kinase 1 (MAPK1, Homo sapiens, UniProt P28482) — remaining binding: 88%.
Serine/threonine-protein kinase WNK2 (WNK2, Homo sapiens, UniProt Q9Y3S1) — remaining binding: 92%.
It gave 98% for remaining binding (Dual specificity mitogen-activated protein kinase kinase 7 (MAP2K7, Homo sapiens, UniProt O14733)).
It gave 100% for remaining binding (Serine/threonine-protein kinase BRSK1 (BRSK1, Homo sapiens, UniProt Q8TDC3)).
The remaining binding was 100% (Ephrin type-A receptor 5 (EPHA5, Homo sapiens, UniProt P54756)).
For Mitogen-activated protein kinase kinase kinase 13 (MAP3K13, Homo sapiens, UniProt O43283): remaining binding read 100%.
For Aurora kinase A (AURKA, Homo sapiens, UniProt O14965): remaining binding read 100%.

Repeated from above (series 3):
For SRSF protein kinase 1 (SRPK1, Homo sapiens, UniProt Q96SB4): remaining activity read 87%.
Dual specificity tyrosine-phosphorylation-regulated kinase 1A (DYRK1A, Homo sapiens, UniProt Q13627) — remaining activity: 54.7%.
